{"data": "Measurements pooled from the literature", "observed": "DPPH scavenging", "note": "Lines come from different studies, so protocols differ. Several values in a cell are separate wells, animals, samples, runs or records."}
{"SMILES": "CCCCn1cc(C(=O)O)c(=O)c2cc(F)c(Nc3cccc(Cl)c3)c(N)c21", "setting": "30 min", "IC50": "110 µM"}
{"SMILES": "O=c1c(O)c(-c2cc(O)ccc2O)oc2cc(O)cc(O)c12", "test": "absorbance", "IC50": "64 µg/mL"}
{"SMILES": "COc1cc(/C=C/C(=O)CC(=O)/C=C/c2ccc(OC(=O)CCc3c[nH]c4ccccc34)c(OC)c2)ccc1OC(=O)CCc1c[nH]c2ccccc12", "IC50": "626 µM"}
{"SMILES": "CC(=O)c1nn(-c2ccc([N+](=O)[O-])cc2)c2nc3nc(-c4ccccc4)cc(-c4ccc5ccccc5n4)c3c(=O)n12", "test": "absorbance", "setting": "30 min", "IC50": "135 µM"}
{"SMILES": "COc1cc(/C=C/C(=O)NC(C)C(N)=O)ccc1OCc1ccccc1 (centres unmarked)", "IC50": "81.3 µM"}
{"SMILES": "c1coc(-c2nc3ccccc3[nH]2)c1", "test": "absorbance", "IC50": "1.4 µM"}
{"SMILES": "CCCCn1cc(C(=O)O)c(=O)c2cc(F)c(Nc3ccccc3Cl)c(N)c21", "setting": "30 min", "IC50": "89.8 µM and 90 µM"}
{"SMILES": "S=C(NCc1ccccn1)NCc1ccccn1", "IC50": "120 µg/mL"}
{"SMILES": "O=C(O)/C=C/c1ccc(O)cc1", "IC50": "59 µg/mL"}
{"SMILES": "c1ccc(-c2cc(-c3ccc4ccccc4n3)c3c4nncn4c4nncn4c3n2)cc1", "test": "absorbance", "setting": "30 min", "IC50": "121 µM"}
{"SMILES": "O=C(O)/C=C/c1cc(O)cc(O)c1", "test": "absorbance", "IC50": "65 µg/mL"}
